# Experimental data gathered from unrelated publications.
# Parts stem from different laboratories: compare values within a part only.

# Study 1
# Target: Histone acetyltransferase KAT6A, both winged helices, GST fusion (KAT6A, Homo sapiens, UniProt Q92794, residues 1-181)
# Technique: protein binding microarray
# Molecule type: double-stranded DNA, one strand shown
# Medium: in vitro
# Concentration: not given
# Notes: 8-mer, flanks averaged, mean of 2 arrays, mostly near background
# Baseline: not given
# Reading: higher = stronger binding
# Target sequence (chain): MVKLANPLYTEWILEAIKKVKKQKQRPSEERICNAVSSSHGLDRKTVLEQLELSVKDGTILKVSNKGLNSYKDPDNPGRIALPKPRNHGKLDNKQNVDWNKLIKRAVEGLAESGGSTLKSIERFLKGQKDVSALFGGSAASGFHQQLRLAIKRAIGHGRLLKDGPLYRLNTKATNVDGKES
Oligonucleotide,E-score
ACCCGTCA,0.214
TCTGCAGA,0.0641
GCAGAACA,0.00543
AACACAAA,-0.208
CTATCCGA,-0.0696
TACCACCA,-0.195
GCCAGCAA,-0.149
ACCTATTA,-0.12
AATAATCT,-0.158
CAGCGAAC,-0.0855
ATGAGTAG,-0.0668
GCCTGTAA,-0.0127
CAAGACAC,0.00519
ACTAGCTC,-0.0442
GGGATATA,-0.108
GCTCACAC,-0.0489
ACCCCCAT,-0.243
AACCGTAT,0.0796
AGGGCCCA,-0.258
ACGTTACA,-0.0371
AAAAACGA,-0.0182
AGCACTAC,-0.0911
ATGATGAC,-0.0656
CAACTATA,-0.0312
CAGGTCAC,-0.0612

# Study 2
# Target: Interferon regulatory factor 5, full length, phosphomimetic (IRF5, Homo sapiens, UniProt Q13568-2, residues 1-514, K96S/S451D/S453D/S456D/S462D)
# Technique: protein-binding microarray
# Molecule type: double-stranded DNA, one strand shown
# Medium: in vitro
# Concentration: 250 nM
# Notes: 60-bp whole probe
# Together with: salmon DNA 0.4 mg/ml
# Baseline: random background probes
# Reading: higher = stronger binding
# Constant ends, left off below: GCCTAGCAC … GTCTTGATTCGCTTGACGCTGCTG
Oligonucleotide,log fluorescence [z-score]
TAAGGACTGGACTATCGGTTAGTGCTA,5.71
CCACTCTTCCTTTACTTTCTGTGCTAG,2.74
GACGTTTTCAGACTGGAGACGTGCTAG,0.412
TCTCCTCCCCCTCTGCCACCGTGCTAG,-0.398
TTAGATATCAGTTCCGATTAGTGCTAG,2.19
TCAAAAGTGTTTCTCAAACTGTGCTAG,0.41
GACGATTTCAGTTTCGAGCCGTGCTAG,5.92
TAGATCGTCCCTTTGAGAGGGTGCTAG,-0.316
TTAGGACTGCTTCTCCCTTAGTGCTAG,-0.13
GACGGACTGCTACTGCCGACGTGCTAG,-0.455
TCATATACCACTCTTGCACTGTGCTAG,0.27
GACGGTTTCCTGTTCCTGACGTGCTAG,0.569
TCACTGCTACCCTCTGAAACTGTGCTA,0.127
GACGGTATCGGGTACCGGGACGTGCTA,2.85
CACGATTTCGGGTTTCGAGACGTGCTA,4.86
TGAGGTTTCGGGTATCGGTTAGTGCTA,8.35

# Study 3
# Target: Ras GTPase-activating protein-binding protein 1, full length (G3BP1, Homo sapiens, UniProt Q13283)
# Chain of UniProt Q13283 (whole entry, looked up): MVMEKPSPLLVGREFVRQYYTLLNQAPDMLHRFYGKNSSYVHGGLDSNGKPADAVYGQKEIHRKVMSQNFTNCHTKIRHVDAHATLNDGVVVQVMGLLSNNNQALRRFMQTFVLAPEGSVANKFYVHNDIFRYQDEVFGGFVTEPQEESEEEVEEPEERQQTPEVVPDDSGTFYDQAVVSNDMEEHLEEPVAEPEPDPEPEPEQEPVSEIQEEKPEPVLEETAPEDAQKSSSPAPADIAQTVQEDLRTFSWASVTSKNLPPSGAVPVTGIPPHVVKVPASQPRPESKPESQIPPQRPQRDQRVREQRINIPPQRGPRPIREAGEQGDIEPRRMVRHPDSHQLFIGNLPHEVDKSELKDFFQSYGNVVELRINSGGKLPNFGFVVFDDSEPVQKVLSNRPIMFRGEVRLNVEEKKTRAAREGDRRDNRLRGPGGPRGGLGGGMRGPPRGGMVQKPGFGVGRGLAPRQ
# Technique: RNA Bind-n-Seq
# Molecule type: RNA
# Medium: in vitro
# Concentration: 200 nM
# Notes: whole 134-nt RNA, ends assumed
# Together with: 150 mM LiCl
# Baseline: input library
# Reading: higher = stronger binding
# Each molecule: 7-deaza-guanosine replaces G
# Constant ends, left off below: GGGAGUUCUACAGUCCGACGAUC … UGGAAUUCUCGGGUGUCAAGG
Oligonucleotide,log2 enrichment
GUCCUGUGCUACACAUCGUAUGUACCGAAUCGGGUUUGGGAAAAAAAGGGAAAAAGGGAAAGUAUUAUGUUACGCCGUUCGGAUCUGCAC,-0.333
CCUCAAGUCCUGUGCUACACAUCGUAUGUACCGAAUCGGUUUGGUUUGGAGGAAAGUAUUAUGUUACGCCGUUCGGAUCUGCACUUCCAG,-0.184
ACCAUGCAGGUGGGCAUCUUUGGGAAGUGGGGCAAGGGGGGGAUAGGGAGGGGGGUAACACUUUGGGAACAGGUGGUCCCGGGUCGUUUC,0.12
UCAAGUCCUGUGCUACACAUCGUAUGUACCGAAUCGGGCCCGGCCCGGCCCGGGAAAGUAUUAUGUUACGCCGUUCGGAUCUGCACUUCC,-0.693
UCAAGUCCUGUGCUACACAUCGUAUGUACCGAAUCGGAAAGGUUUUUGGUUUGGAAAGUAUUAUGUUACGCCGUUCGGAUCUGCACUUCC,-1.49
UCAAGUCCUGUGCUACACAUCGUAUGUACCGAAUCGGGAAGGGGAAGGGAAGGGGAAAGUAUUAUGUUACGCCGUUCGGAUCUGCACUUC,0.0255
UGGCCCUGGUGGCAUGCGGGGAGGAAGAGGUGGCCUCAUGGAUCGUGGUGGUCCCGGUGGAAUGUUCAGUGGUGGCCGUGGUGGAGACAG,0.14
AAGUCCUGUGCUACACAUCGUAUGUACCGAAUCGGGUUUUGGGUUUUGGUUUUGGGGAAAGUAUUAUGUUACGCCGUUCGGAUCUGCACU,-0.00175
UGGCCCUGGUGGCAUGCGGGGAGGAAGAGGUGGCCUCAUGGAUCGUGGUGGUCCCGCUGGAAUGUUCAGAGGUGGCCGUGGUGGAGACAG,0.401
UGCUGCGGAAGGGCUCUGGCACUCUGUGUGAGGCCUUGCUGAUGGUGCAGGCCUUCCACGCCAACAUCAUCUUCCCCAACAAGCAAGAGC,-0.716
ACCAUGCAGGUGGGCAUCUUUGGGAAGUGGGGCAAGAGGGGGAUAGGGAGGGGGGUAACACUUUGGGAACAGGUGGUCCCAGGUCGUUUC,0.312

# Study 4
# Target: RNA binding protein fox-1 homolog 2, RRM domain, GST-SBP tag (RBFOX2, Homo sapiens, UniProt O43251-10, residues 100-194)
# Technique: RNA Bind-n-Seq
# Molecule type: RNA
# Medium: in vitro
# Concentration: 365 nM
# Notes: natural RNA segment, single round, ends assumed
# Baseline: no-protein control
# Reading: higher = stronger binding
# Constant ends, left off below: GGGAGUUCUACAGUCCGACGAUC … UGGAAUUCUCGGGUGCCAA
# Target sequence (chain): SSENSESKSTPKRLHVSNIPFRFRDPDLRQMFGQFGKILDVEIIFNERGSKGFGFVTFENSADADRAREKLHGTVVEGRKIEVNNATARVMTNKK
Oligonucleotide,RBNS enrichment (R)
AUUCACCACAGACUUUAGCUUUCUGAGCAAGAGGAUUUUGCGUCAGAGAAAUGUCUGUCCAUUUUUAUUCAGGGGAAACUUGAUUUGAGAUUUUUAUGCCUGUGACUUCC,0.556
AGUUCUGAGCCGGGCAAGUCGAGAGGGCUGUUGGACAGCUGCUUGUGGGCCCGGAGUAAUCAGGCAGCCUUCAUAGGCGGUCAUGUGUGCAUGUGAGCACAUGCGUAUAU,1.57
AGAAAUAACUUUGAAGGGAAAAAAGUCAUUAGCUUAGAAUAUGAAGCAUAUCUACCCAUGGCGGAAAAUGAAGUCAGAAAGAUUUGUAGUGACAUUAGGCAGAAAUGGCC,0.641
ACAUUGGCCUAUUAUAAUCUGUGUUGGUUAUUUUUCUCCUGUAAGCAUCCUGAUUUUUCUGUAGGAACUUUUCUUUGGCAGACCAAGUGAAGACUCAGGAAUGGUGUGCA,13.5
UAAGAUAAAUGAGGGGGAAAAAAACUAAAAAUAUGCUUUUGUCCCAAAUAUCUCAUUUUACAAGGUAGUUUAAAUUGUGUUAAAAUCACUAGCAAGAAGUAUAUAUUUUC,0.668
AAUAGCUGAGGGAAAAGGGAGGGAAAAGGAAGUUAUGGGAAUACCUGUGGUGGUUGUGAUCCCUAGGUCUUGGGAGCUCUUGGAGGUGUCUGUAUCAGUGGAUUUCCCAU,0.821
AGUUUGUUAUUUCUCAAGUAUACAGCACCGAGGUCAGUCAGUUGUCACUCCCUGAUGACGUGUAGCUGCCCGCUCACUCCAUGUGAAGAAGAGCUCCAGCAGGCUACACA,0.273
UUGGGGUUGUGGAGAUGGACCCGUGACCUCGUGGAGGCCGUGUGGGGGCAGCAGCCUGGCCUGUGCCAUGGUGGGUGUCCUGGGGCCUGUGCGGAGGGAGCCACCUCACC,0.259
CAAGGACUAACAUGCAAUCUGUGAAUUAAAAAUCUCAAUGCACUGUCUAGUGGAAGAUGAAUGGACAUGAUCAGUGACACCCCUGCUUGGUUUCUGGCGCUUUCAGAGAC,0.281
UGGAUCAGGGUAGCUACAAGUGGCCGGGCCUUGCCUUUGGGAUUCUACCUGUUCCUAAUUUGGUGUGGGGUGCGGGGUCCCUGGCCCCUUUUCCACACUCCUCCUCCGAC,0.272
GGCUAGAAGCAGCCAGGCCAUGGAAACAAGUUGAAUACAGCGAUUGGUAGGCCUCAUGUCAGAAUCAGGACCCUGCACUUCAGGACCCUUGCUUCUGCCCACCAAUCAGA,0.337
UCAUCCUUAGGUUUUCUCAAGAUUUAAGUGAACACAUUUACACAUAUCAAUUUCUUAAAGAACACAAAAUGUUUCCUCCCUAGCAAAACUAUUUAAGAGCCAAUUAAACU,0.371

# Excerpt of the above (study 3):
Oligonucleotide,log2 enrichment
CCUCAAGUCCUGUGCUACACAUCGUAUGUACCGAAUCGGUUUGGUUUGGAGGAAAGUAUUAUGUUACGCCGUUCGGAUCUGCACUUCCAG,-0.184
ACCAUGCAGGUGGGCAUCUUUGGGAAGUGGGGCAAGGGGGGGAUAGGGAGGGGGGUAACACUUUGGGAACAGGUGGUCCCGGGUCGUUUC,0.12
UCAAGUCCUGUGCUACACAUCGUAUGUACCGAAUCGGGCCCGGCCCGGCCCGGGAAAGUAUUAUGUUACGCCGUUCGGAUCUGCACUUCC,-0.693
UCAAGUCCUGUGCUACACAUCGUAUGUACCGAAUCGGAAAGGUUUUUGGUUUGGAAAGUAUUAUGUUACGCCGUUCGGAUCUGCACUUCC,-1.49
UCAAGUCCUGUGCUACACAUCGUAUGUACCGAAUCGGGAAGGGGAAGGGAAGGGGAAAGUAUUAUGUUACGCCGUUCGGAUCUGCACUUC,0.0255
UGGCCCUGGUGGCAUGCGGGGAGGAAGAGGUGGCCUCAUGGAUCGUGGUGGUCCCGGUGGAAUGUUCAGUGGUGGCCGUGGUGGAGACAG,0.14
AAGUCCUGUGCUACACAUCGUAUGUACCGAAUCGGGUUUUGGGUUUUGGUUUUGGGGAAAGUAUUAUGUUACGCCGUUCGGAUCUGCACU,-0.00175
UGGCCCUGGUGGCAUGCGGGGAGGAAGAGGUGGCCUCAUGGAUCGUGGUGGUCCCGCUGGAAUGUUCAGAGGUGGCCGUGGUGGAGACAG,0.401
UGCUGCGGAAGGGCUCUGGCACUCUGUGUGAGGCCUUGCUGAUGGUGCAGGCCUUCCACGCCAACAUCAUCUUCCCCAACAAGCAAGAGC,-0.716
ACCAUGCAGGUGGGCAUCUUUGGGAAGUGGGGCAAGAGGGGGAUAGGGAGGGGGGUAACACUUUGGGAACAGGUGGUCCCAGGUCGUUUC,0.312
